Assay results gathered from unrelated publications.
Numbered parts are unrelated; each lists some results of a single study. Values joined by “and” are separate records of one study, mostly repeats; a detail may differ.
Sequence of UniProt P10721 (whole entry, unmodified, looked up): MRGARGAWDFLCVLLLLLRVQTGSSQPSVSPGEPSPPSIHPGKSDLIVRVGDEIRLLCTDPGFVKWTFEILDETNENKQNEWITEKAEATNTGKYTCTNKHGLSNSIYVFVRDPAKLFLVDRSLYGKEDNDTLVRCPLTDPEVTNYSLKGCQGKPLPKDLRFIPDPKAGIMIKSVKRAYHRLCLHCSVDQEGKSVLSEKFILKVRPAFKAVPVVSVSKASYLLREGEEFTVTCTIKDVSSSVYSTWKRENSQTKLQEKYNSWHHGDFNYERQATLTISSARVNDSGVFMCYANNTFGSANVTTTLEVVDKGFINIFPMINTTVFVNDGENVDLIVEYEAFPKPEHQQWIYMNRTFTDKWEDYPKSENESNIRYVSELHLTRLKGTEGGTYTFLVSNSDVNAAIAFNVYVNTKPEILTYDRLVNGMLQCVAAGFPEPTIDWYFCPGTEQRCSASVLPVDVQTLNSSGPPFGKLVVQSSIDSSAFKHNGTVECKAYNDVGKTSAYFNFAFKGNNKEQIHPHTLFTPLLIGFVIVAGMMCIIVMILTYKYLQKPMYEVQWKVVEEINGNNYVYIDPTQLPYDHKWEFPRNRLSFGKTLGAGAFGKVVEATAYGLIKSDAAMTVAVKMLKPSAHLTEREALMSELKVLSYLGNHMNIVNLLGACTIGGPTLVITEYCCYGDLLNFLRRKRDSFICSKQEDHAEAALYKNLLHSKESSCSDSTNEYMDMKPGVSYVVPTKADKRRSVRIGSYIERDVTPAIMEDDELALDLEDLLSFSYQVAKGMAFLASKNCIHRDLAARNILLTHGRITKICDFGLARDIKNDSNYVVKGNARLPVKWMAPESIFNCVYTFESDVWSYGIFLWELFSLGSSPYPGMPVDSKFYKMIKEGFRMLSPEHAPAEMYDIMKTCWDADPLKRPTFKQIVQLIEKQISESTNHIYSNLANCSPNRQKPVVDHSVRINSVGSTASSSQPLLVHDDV
Sequence of UniProt Q96SW2 (whole entry, looked up): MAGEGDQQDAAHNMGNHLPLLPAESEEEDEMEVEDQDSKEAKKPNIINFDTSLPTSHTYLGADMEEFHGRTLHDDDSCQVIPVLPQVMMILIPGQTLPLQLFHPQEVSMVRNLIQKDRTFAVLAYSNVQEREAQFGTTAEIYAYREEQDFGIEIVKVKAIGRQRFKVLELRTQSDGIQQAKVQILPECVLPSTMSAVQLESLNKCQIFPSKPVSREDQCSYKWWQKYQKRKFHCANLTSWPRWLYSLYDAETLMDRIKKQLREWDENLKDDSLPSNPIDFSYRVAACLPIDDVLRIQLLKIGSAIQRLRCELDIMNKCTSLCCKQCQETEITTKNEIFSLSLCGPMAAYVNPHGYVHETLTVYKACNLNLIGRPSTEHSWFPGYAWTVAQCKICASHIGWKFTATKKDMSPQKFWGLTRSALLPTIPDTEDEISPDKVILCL
Sequence of UniProt O94806 (whole entry, looked up): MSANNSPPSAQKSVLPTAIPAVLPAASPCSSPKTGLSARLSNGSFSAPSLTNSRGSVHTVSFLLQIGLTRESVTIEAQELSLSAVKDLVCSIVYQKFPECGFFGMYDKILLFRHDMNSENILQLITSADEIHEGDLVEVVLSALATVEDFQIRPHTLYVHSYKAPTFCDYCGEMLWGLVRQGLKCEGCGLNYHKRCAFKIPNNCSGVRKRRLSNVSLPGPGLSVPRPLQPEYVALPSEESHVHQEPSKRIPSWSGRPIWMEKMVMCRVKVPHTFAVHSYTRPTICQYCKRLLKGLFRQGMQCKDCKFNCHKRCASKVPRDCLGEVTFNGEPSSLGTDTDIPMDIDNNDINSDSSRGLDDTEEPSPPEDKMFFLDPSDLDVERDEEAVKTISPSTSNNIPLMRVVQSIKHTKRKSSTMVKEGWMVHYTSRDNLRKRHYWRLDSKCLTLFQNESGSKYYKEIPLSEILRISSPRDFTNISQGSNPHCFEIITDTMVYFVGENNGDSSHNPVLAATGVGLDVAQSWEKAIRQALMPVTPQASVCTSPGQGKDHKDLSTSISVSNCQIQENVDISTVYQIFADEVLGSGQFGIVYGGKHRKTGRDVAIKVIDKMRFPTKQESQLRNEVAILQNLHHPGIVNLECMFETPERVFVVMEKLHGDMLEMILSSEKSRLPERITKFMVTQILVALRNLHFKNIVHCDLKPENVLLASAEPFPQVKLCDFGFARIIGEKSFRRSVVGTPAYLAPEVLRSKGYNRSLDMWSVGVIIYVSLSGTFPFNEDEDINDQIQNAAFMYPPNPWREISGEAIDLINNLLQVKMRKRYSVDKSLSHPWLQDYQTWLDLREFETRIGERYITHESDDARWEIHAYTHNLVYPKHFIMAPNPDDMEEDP
Sequence of UniProt Q9C098 (whole entry, looked up): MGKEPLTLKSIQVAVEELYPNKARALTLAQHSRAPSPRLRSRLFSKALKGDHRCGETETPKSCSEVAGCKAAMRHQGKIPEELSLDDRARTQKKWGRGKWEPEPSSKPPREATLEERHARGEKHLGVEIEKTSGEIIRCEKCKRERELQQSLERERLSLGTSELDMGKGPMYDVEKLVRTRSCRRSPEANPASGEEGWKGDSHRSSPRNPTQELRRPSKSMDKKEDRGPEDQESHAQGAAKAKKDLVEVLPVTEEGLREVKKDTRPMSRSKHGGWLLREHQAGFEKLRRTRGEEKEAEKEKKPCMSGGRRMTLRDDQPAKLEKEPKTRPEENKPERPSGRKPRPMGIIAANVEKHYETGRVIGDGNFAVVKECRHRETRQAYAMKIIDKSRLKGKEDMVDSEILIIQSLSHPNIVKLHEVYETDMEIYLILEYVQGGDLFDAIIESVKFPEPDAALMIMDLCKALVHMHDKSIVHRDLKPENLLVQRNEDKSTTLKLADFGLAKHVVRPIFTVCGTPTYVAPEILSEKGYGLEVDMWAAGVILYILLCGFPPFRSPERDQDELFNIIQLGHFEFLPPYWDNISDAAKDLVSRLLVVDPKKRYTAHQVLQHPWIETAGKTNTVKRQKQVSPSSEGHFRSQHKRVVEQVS
Sequence of UniProt Q86Z02 (whole entry, looked up): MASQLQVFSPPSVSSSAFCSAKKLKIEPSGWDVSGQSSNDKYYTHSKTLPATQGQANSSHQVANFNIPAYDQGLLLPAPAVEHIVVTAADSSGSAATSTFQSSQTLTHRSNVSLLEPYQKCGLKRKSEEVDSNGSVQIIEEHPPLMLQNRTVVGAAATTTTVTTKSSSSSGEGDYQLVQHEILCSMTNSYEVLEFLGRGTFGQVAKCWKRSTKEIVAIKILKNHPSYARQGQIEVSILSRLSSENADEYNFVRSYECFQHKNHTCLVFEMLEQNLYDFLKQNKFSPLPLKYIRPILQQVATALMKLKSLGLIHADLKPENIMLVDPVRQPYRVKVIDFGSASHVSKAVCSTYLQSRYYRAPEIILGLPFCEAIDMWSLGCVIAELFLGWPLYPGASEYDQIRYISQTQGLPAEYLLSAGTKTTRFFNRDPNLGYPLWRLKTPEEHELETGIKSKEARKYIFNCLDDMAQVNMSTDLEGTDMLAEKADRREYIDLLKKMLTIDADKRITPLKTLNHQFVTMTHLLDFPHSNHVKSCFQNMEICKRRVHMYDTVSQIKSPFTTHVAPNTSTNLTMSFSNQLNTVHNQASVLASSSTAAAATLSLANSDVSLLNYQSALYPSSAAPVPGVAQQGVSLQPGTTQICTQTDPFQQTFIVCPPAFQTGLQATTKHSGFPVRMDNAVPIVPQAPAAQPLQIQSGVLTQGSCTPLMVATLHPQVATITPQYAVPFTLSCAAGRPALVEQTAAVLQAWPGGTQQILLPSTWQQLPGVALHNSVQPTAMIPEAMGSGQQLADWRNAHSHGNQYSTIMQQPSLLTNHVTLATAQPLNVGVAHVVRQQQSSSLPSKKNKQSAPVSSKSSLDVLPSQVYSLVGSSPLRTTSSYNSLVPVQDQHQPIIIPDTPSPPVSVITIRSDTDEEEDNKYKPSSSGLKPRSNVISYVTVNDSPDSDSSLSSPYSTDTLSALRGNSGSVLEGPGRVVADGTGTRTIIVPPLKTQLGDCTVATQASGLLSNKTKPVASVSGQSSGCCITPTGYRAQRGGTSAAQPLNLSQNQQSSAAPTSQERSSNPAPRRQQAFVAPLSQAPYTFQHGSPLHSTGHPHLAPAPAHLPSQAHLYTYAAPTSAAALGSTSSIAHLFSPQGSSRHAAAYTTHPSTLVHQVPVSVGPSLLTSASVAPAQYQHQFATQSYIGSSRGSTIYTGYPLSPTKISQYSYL

Block 1
Structure (SMILES): CCN1/C(=C/C=C2\CCCC(/C=C/C3=[N+](CC)c4ccccc4C3(C)C)=C2NCCCCCCCCN2CCC(Nc3nc4ccccc4n3Cc3ccc(F)cc3)CC2)C(C)(C)c2ccccc21
Cell line: U-87 MG
Tested at: concentration not given
Relative to: DMSO
It gave -1.98 for “log2 fold change” (item: PALMD mRNA).
It gave 1.28 for “log2 fold change” (item: NBEA mRNA).
item: CD274 mRNA — “log2 fold change”: 1.84.
It gave 0.926 for “log2 fold change” (item: ZFAND5 mRNA).
For item: WDR90 mRNA: “log2 fold change” read -1.11.
item: IRS2 mRNA — “log2 fold change”: 1.6.
item: CAB39L mRNA — “log2 fold change”: 1.34.
item: PRMT6 mRNA — “log2 fold change”: -1.2.
The “log2 fold change” was -1.92 (item: PCDH7 mRNA).
item: PLB1 mRNA — “log2 fold change”: -1.27.
item: PLK3 mRNA — “log2 fold change”: 1.18.
For item: EPB41L5 mRNA: “log2 fold change” read 1.5.
item: EXOC3L1 mRNA — “log2 fold change”: -3.94.
item: BRSK1 mRNA — “log2 fold change”: 1.35.
item: WDR54 mRNA — “log2 fold change”: -0.833.
It gave 0.871 for “log2 fold change” (item: THAP5 mRNA).

Block 2
SMILES: Cc1ccc(O)c(C)c1-c1cnc2[nH]c(-c3cnc(N4CCC5(CC4)CC(N4CCN(c6ccc(N[C@H]7CCC(=O)NC7=O)cc6F)CC4)CO5)nc3)cc2c1C#N (single isomer, unassigned)
PKMYT1: Membrane-associated tyrosine- and threonine-specific cdc2-inhibitory kinase (PKMYT1, Homo sapiens, UniProt Q99640)
Sequence of UniProt Q99640 (whole entry, looked up): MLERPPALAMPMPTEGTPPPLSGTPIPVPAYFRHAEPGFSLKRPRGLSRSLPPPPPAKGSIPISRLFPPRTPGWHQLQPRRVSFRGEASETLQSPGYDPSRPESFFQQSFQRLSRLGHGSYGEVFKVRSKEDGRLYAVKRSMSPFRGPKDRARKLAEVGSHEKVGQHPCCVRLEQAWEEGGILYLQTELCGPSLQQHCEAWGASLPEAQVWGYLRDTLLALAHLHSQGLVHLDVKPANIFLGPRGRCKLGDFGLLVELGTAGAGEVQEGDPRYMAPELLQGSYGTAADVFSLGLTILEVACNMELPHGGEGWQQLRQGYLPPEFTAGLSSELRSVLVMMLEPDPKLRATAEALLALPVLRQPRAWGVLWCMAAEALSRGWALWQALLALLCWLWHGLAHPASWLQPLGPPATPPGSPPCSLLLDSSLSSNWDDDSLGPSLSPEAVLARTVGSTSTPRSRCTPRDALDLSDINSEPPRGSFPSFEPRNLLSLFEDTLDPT
It gave -6.6% and -3.38% and -4.95% for inhibition (MKN-1; cell proliferation; 1.524 nM).
The inhibition was 99.3% (PKMYT1; enzyme activity, inhibitor; 0.3704 µM).
PKMYT1; 10 µM — inhibition: 97.6%.
For KLE; cell proliferation; 4.572 nM: inhibition read -0.93% and -3.34% and -3.86%.
PKMYT1; binding, HTRF; 4.57 nM — inhibition: 54.4% and 49.5%.
For PKMYT1; 0.01372 µM: inhibition read 78.5%.
The inhibition was 65.2% (U-251 MG; cell growth; 1111.11 nM).
For HCC1569; automated immunoblotting, item: CDK1 phospho-Thr14; concentration not given, 2 h after washout: inhibition read 51%.
HuCCT-1; cell proliferation; 1.52 nM — inhibition: 2.26% and 1.13% and 4.18%.
The inhibition was 6.62% (HCC1569; automated capillary immunoblot, item: CDK1 phospho-Thr14; 1 nM, 4 h).
The inhibition was 82.2% (HCC1569; automated capillary immunoblot, item: CDK1 phospho-Thr14; 100 nM, 24 h).
Protein cereblon (CRBN, Homo sapiens, UniProt Q96SW2); binding; 370.37 nM — inhibition: 15.8% and 8.13%.

Block 3
SMILES: O=C(O)C1Oc2cc(F)ccc2N(Cc2ccccc2)C1=O (stereo not shown)
Organism: Arabidopsis thaliana
Strain: Col-0
Sample: seedlings
The inhibition was 24.2% (hypocotyl length; 50 µg/mL).
The inhibition was 14.9% (hypocotyl length; 25 µg/mL).
It gave 4.68% for inhibition (hypocotyl length; 6.25 µg/mL).
The inhibition was 37.8% (root length; 100 µg/mL; relative to: water control).
It gave 10.8% for inhibition (root length; 6.25 µg/mL).
The inhibition was 12.4% (root length; 12.5 µg/mL; relative to: water control).
root length; 100 µg/mL — inhibition: 37.8%.
It gave 5.21% for inhibition (root length; 3.125 µg/mL; relative to: water control).
The inhibition was 3.44% (hypocotyl length; 3.125 µg/mL).

Block 4
Structure (SMILES): COc1cc(-c2nc3ccc(C(=O)NCCCN4CCN(c5cccc(C)c5C)CC4)cc3n2C2CCC2)cc(OC)c1OC
Observed: binding
Technique: competition with immobilised ligand
Tested at: 1 µM
It gave 77% for remaining binding (Serine/threonine-protein kinase DCLK3 (DCLK3, Homo sapiens, UniProt Q9C098)).
It gave 100% for remaining binding (Tyrosine-protein kinase Tec (TEC, Homo sapiens, UniProt P42680)).
It gave 100% for remaining binding (Mast/stem cell growth factor receptor Kit (KIT, Homo sapiens, UniProt P10721, D816V)).
The remaining binding was 74% (Cyclin-dependent kinase-like 2 (CDKL2, Homo sapiens, UniProt Q92772)).
For Homeodomain-interacting protein kinase 1 (HIPK1, Homo sapiens, UniProt Q86Z02): remaining binding read 83%.
It gave 100% for remaining binding (Phosphatidylinositol 5-phosphate 4-kinase type-2 beta (PIP4K2B, Homo sapiens, UniProt P78356)).
It gave 96% for remaining binding (Microtubule-associated serine/threonine-protein kinase 1 (MAST1, Homo sapiens, UniProt Q9Y2H9)).
The remaining binding was 0% (Activin receptor type-1-like (ACVRL1, Homo sapiens, UniProt P37023)).
For Tyrosine-protein kinase JAK1, JH1 (JAK1, Homo sapiens, UniProt P23458): remaining binding read 100%.
The remaining binding was 100% (Phosphatidylinositol 4,5-bisphosphate 3-kinase catalytic subunit alpha isoform (PIK3CA, Homo sapiens, UniProt P42336, C420R)).
Mast/stem cell growth factor receptor Kit (KIT, Homo sapiens, UniProt P10721, L576P) — remaining binding: 100%.
It gave 92% for remaining binding (Misshapen-like kinase 1 (MINK1, Homo sapiens, UniProt Q8N4C8)).
The remaining binding was 78% (Serine/threonine-protein kinase D3 (PRKD3, Homo sapiens, UniProt O94806)).
The remaining binding was 99% (Serine/threonine-protein kinase B-raf (BRAF, Homo sapiens, UniProt P15056, V600E)).
It gave 71% for remaining binding (Mitogen-activated protein kinase kinase kinase 2 (MAP3K2, Homo sapiens, UniProt Q9Y2U5)).
It gave 86% for remaining binding (Ephrin type-B receptor 2 (EPHB2, Homo sapiens, UniProt P29323)).
It gave 98% for remaining binding (Calcium/calmodulin-dependent protein kinase type II subunit delta (CAMK2D, Homo sapiens, UniProt Q13557)).
For Vascular endothelial growth factor receptor 3 (FLT4, Homo sapiens, UniProt P35916): remaining binding read 88%.
The remaining binding was 89% (Hepatocyte growth factor receptor (MET, Homo sapiens, UniProt P08581, M1250T)).
It gave 95% for remaining binding (Cyclin-dependent kinase 11A (CDK11A, Homo sapiens, UniProt Q9UQ88)).
The remaining binding was 73% (Ribosomal protein S6 kinase alpha-6, N-terminal kinase domain (RPS6KA6, Homo sapiens, UniProt Q9UK32)).

Repeated from above (block 4):
The remaining binding was 99% (Serine/threonine-protein kinase B-raf (BRAF, Homo sapiens, UniProt P15056, V600E)).
Mast/stem cell growth factor receptor Kit (KIT, Homo sapiens, UniProt P10721, L576P) — remaining binding: 100%.
It gave 98% for remaining binding (Calcium/calmodulin-dependent protein kinase type II subunit delta (CAMK2D, Homo sapiens, UniProt Q13557)).
It gave 96% for remaining binding (Microtubule-associated serine/threonine-protein kinase 1 (MAST1, Homo sapiens, UniProt Q9Y2H9)).
